Measured values of several laboratories.
Parts stem from different laboratories: compare values within a part only. Positions count from the first letter of the parent shown.

Study 1
Target: Sal-like protein 4, full length isoform B (SALL4, Homo sapiens, UniProt Q9UJQ4-2, residues 1-616)
Method: universal PBM
Molecule type: double-stranded DNA, one strand shown
Sample: in vitro
Tested at: not given
Setting: 8-mer, flanks averaged, mean of replicates
Direction: higher = stronger binding
| Sequence | E-score |
| --- | --- |
| TATTAGCA | 0.279 |
| ACGACAGT | -0.0109 |
| ACTGGGGG | -0.23 |
| CTACCTCC | -0.073 |
| GAGAAACC | -0.0636 |
| ACTAGAGG | -0.0373 |
| CTCAATTC | 0.0127 |
| GGTGGCTA | -0.197 |
| CCTTGGAG | -0.0415 |
| AGCCCCAG | -0.294 |
| GTTAGTTA | 0.31 |
| CGCAGTCA | -0.0626 |
| AGAAGCGA | -0.0966 |
| GATAGCGC | -0.104 |
| TCTTCACA | 0.128 |
| AATATTTC | 0.439 |
| AATTAACG | 0.226 |
| AACGTACT | 0.0923 |
| ACGTCACC | -0.168 |
| AGATATTC | 0.179 |
| CAGATGAA | 0.0843 |
| ACTGTCCT | -0.101 |
| ATACCGTC | 0.11 |

Study 2
Target: RING finger protein unkempt homolog, zinc fingers 1-6, GST-SBP tag (UNK, Homo sapiens, UniProt Q9C0B0, residues 30-357)
Method: RNA Bind-n-Seq
Molecule type: RNA
Sample: in vitro
Tested at: not given
Setting: RNA with constant flanks, ends assumed
Relative to: input RNA pool
Direction: higher = stronger binding
All sequences stand within: GGGAGUUCUACAGUCCGACGAUC … CAACAGAGGAUUGAGCAUCA
Construct (chain): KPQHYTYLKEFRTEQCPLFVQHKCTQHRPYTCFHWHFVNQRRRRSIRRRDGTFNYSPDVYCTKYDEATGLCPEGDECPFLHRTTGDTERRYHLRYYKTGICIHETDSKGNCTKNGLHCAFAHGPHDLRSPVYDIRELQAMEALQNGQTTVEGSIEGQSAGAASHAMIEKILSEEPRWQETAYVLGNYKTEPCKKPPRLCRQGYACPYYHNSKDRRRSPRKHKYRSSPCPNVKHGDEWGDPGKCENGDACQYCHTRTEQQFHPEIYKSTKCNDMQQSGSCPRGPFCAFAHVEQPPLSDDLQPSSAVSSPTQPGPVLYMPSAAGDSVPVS
| Sequence | bound/input enrichment [ratio] |
| --- | --- |
| CUCAAUGCAUUGACCAAGCAUGUCUCACCACUGAUAGGACGUUUUGUUCCCUUUGCUGCCGCCGCUGCUGCUAAUUGCAUUAAUAUUCCAUUAAUGAGGCAAAGGGAACUCAAAGUUGGC | 0.135 |
| ACUGAGCAGAAUGAAGAACUGAGCAUCUUAUAUCCAGCCGCCAUUGUGACGAUUGAUGGAUUCCGUCUCUUUCAGUCUCUUCGAGCCUGUCGAAACCAAGUAGCAAAAGCUGCAGCAUCA | 0.144 |
| CACGGCUGAUUCGCUCAUCGGAAGAGCUGCACACAUAGCUGUUCUUGAUUCUGAGAUAUUUUCCGAGAAGUUUUUCCUGGUUGCCGCCCUCAAAUAUUUUCAGUAGGACCGAAGCAUCAU | 0.15 |
| AGGACUUCAUUCCUCCAUGUUUUCUUCCCUUAUCUUACUGUCAUUGUCCUAAAACCUUAUUUCCGAAAAUUGAUCAAGUAACAUGUUGCAUGUGGCUUACUCUGGAUAUAUCUAAGCCCU | 0.559 |
| AAUAUAUUACAGUUCAUUCCACAGAAAGCAUCCAAACCACCCAAAUGACCAAGGCAUAUACCGUAUUUGGAGGAAUCAGGGGUUUGGAAGGAGUAGGGAGGAGAAUGAAGGAAAAUGCAA | 0.248 |
| AAAGAUCCUAACAUGAAAGGUGCAAUGCUUACAAACACUGGAAAAUAUGCAAUACCAACUACCGAUGCAGAGGCCUAUGCAAUCGGGAAGAAAGAGAAACCACCCUUCUUACCAGAGGAG | 0.232 |
| AUGGAACAUUUUGAUGCAUCACUUAGUACCUAUUUCAAGGCAUUGCUAGGCCCUCGAGAUACCCGAGUAAAAGGAUGGUUUCUUCUGGACAAUUAUAUACCCACAUUUAUCUGCUCUGUC | 2.01 |
| AAGGACCAGUUCAAGAUGCCCCGGGACUGAGGCCGCCCUGCACCUUCAGCGGAUUUGGGGAUCCGGCUCUUUUAGGUAACUGGCUUUCCUGCUGGUCCGUGCGGGAAAUUCAGUCUUGAU | 0.168 |
| UGAGCGUCGGCGCCGGGGUUCGGUGGCCUCUAGUGAGAUCUGGAGGAUCCAAGGAUUCUGCCGCUACAAUGUUGUCAAGACUUUUUCGAAUGCAUGGCCUCUUUGUGGCCUCCCAUCCCU | 0.088 |
| GAAAAGAAGCAACAACUUCUUAGAGCAGCAACAGGAAAGGCCAUUUUAAAUGGAACCGACAGCAUAAACAAAGUGCUAGACCACUUCCGUCGAAAAGGAAUAAACCAGCAUGUUCAAAAU | 0.0855 |
| UUUUCAUGCCCGGCCUUUGUUCCUCCAUAAAUGUGUCCUUUAGUUUCAAACAGAUCUUUACCGUUCGUGCUUCAUAAGCCAAUUCUUAUUAUUAUUUUUGGGGGACUCUUCUUCAAAGAG | 3.07 |

Study 3
Target: RNA binding protein fox-1 homolog 2, RRM domain, GST-SBP tag (RBFOX2, Homo sapiens, UniProt O43251-10, residues 100-194)
Method: RNA Bind-n-Seq
Molecule type: RNA
Sample: in vitro
Tested at: 365 nM
Setting: natural RNA segment, single round, ends assumed
Relative to: no-protein control
Direction: higher = stronger binding
All sequences stand within: GGGAGUUCUACAGUCCGACGAUC … UGGAAUUCUCGGGUGCCAA
Construct (chain): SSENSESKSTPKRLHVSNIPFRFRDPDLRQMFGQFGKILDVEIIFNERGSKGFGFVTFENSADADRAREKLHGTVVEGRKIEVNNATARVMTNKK
| Sequence | RBNS enrichment (R) |
| --- | --- |
| UGAGGCAGGGAGCGGACUUCCUAUUUUCUACCCUCAGUAAAACAAGGUGCUGCUUUGUAUAUCAAAAGCUCCAACCAUGUCCUCUCCCCCUCAGCCUGUGGGUGGCACGA | 0.588 |
| AUUGUUGAGCAUAGCUGGCUUGCCCAAUCUCACAGUGGGUAGGAAGGAGAUGAAGUUUGGAAUCCAGUUUCUUUGGCUCAGAGCUGCUUUCAGUACCACUUGUUUUUAGC | 0.37 |
| GGUGGGAGGGCAGGAGGCCCAAUGGUUGAAAAUAAGAGGGUUCCCGCCCAGAACUCUUCUUGUGAGAGAUGUGCACUUUAAAGGGUGAUUUUGUUACAGAUGUUUAUGGU | 1.54 |
| UAUUUUCAUCAAUUCUGUGCCCAGUGCAUGUAAUAACAAAGAUUUAAAUUUCAUUGUUUAAUGAAAGGGCAAGUCAAAUGCUUGCCCCAAAUUUAAUACAUGUGAUUUGU | 0.599 |
| GCUGCUUCCACCAUCACACUGGGGUUUCUGGAUGGGAAAUAAAAAAAUAAAGGCAGUUCAUUUCCCCCUGUGGCUCUCUCUUCCGUUGGUGGUGGGGGUGGGGCCGGUGU | 0.497 |
| UGCCCGCCGGCUCACCCUUCAGCUGCUGUCGGCCUCUGCUGCCCCUCCCCCAGCCCUUAGCACAGAGAGGGAGAUGCCCCUCCCCAAGCUGCGUUUUUUUAUAGUAGAUU | 0.669 |
| GCGCAGUCAGAGGAUGGAGUCUGAUGUCUUCCGGCUGCUGCCUUUGUGGGCAGAGCUAAUCCAAGUUACUGUUCUCUGUUCAAAUGAAGCAGCUUCAGGAGAAAAAGAGC | 0.305 |
| GAUUUGGUCCCAGAAACCAGCCUGACAUGAGAACAAGCCAGGGUGUCUUCCUGGUGAGUUCUACUCAUGGUCGUUCUCAGGAAAACUGUGUUCCCUUUGUGUGUACGUUU | 8.91 |
| ACAGGGGCUACCUUACCAGUAUAAAGAGCUGAUAACAGUACUCAGAAGAAUCUGUGAACAAAUACUUGAAAAUGGGUUCAAUGUAGACUGCCAUUAUGUGUGGUCUUCCC | 0.239 |
| CAUACAGCAGCCCCCUGGACAGAAUCAGCAUUUCAGCUCAGCUGGCCUGGGAUGGGCCAGGCUGGUCCUGGCUGCCUGUUCCCUGUGCUCUUCAGAAUUACUGUUUUUGU | 0.375 |
| GACUCUUGGGCUGCGAUGCAUCACCCUUGUUACCCUGCAGUGGCUCUUACAAAACCACUUCCUCCCCACCCGCUUGCUGCCAAGGGGCGGGUUGCGGUGCAUGAAACCGC | 1.79 |
| ACUUUUACUUUAAGAAACAACAACAAAGAGAGAGAGAGACUCGAUUCCCAGCAAGUCAGUGUCUCACAAGGGCACUGGCUAAUUACUCUUCUGUCCGCGUUGCUGAUGUC | 0.373 |

Study 4
Target: CCNB3, cyclin fold, Cln2 fusion (human)
Method: yeast growth competition, sequencing
Sample: yeast
Setting: weak parent motif
Relative to: not given
Direction: higher = stronger binding
Starting sequence: WEE1 docking peptide (human); HKTFRKLRLFDTP; partner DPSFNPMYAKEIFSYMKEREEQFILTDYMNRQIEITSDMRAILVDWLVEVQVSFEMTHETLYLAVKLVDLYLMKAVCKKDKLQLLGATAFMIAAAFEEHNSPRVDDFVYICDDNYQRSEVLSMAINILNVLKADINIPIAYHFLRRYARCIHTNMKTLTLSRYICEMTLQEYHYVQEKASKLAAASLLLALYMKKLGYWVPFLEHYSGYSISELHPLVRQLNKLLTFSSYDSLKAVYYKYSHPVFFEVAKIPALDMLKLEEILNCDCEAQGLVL
| Variant | normalised enrichment score |
| --- | --- |
| P13A | 0.209 |
| R5H | 0.847 |
| D11W | 0.226 |
| R8H | 0.553 |
| R8C | 0.67 |
| F4Y | 0.018 |
| L9S | 0.41 |
| K2Y | -0.00528 |
| K6P | 0.635 |
| R5S | 0.0878 |
| D11G | -0.471 |
| P13V | 0.0859 |
| K6H | -0.0852 |
| P13N | 0.401 |
| F10A | 0.491 |
| K6G | 0.214 |
| D11I | -0.444 |
| H1Q | 0.048 |
| H1L | -0.547 |
| L7W | 0.284 |
| K6Y | 0.874 |
| D11A | -0.106 |
| T3P | 0.371 |
| F4E | -0.252 |
| F4L | -0.127 |

Study 5
Target: Histone acetyltransferase KAT6A, winged helix 1, GST fusion (KAT6A, Homo sapiens, UniProt Q92794, residues 1-85)
Method: protein binding microarray
Molecule type: double-stranded DNA, one strand shown
Sample: in vitro
Tested at: not given
Setting: 8-mer, flanks averaged, mean of 2 arrays, mostly near background
Relative to: not given
Direction: higher = stronger binding
Construct (chain): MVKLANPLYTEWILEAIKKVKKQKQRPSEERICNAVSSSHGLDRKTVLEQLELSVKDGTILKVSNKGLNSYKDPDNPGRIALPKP
| Sequence | E-score |
| --- | --- |
| TCCCGCAA | 0.247 |
| CTGGATGA | -0.249 |
| AGGCAGCA | -0.208 |
| GATATTAA | 0.027 |
| AGGTGTTG | -0.061 |
| AGGTTGGA | -0.0672 |
| GTAAGCTA | -0.0248 |
| GACAGTGA | -0.0809 |
| ATGCTACG | 0.0905 |
| CCCCAGGC | -0.114 |
| CGTGACGC | 0.231 |
| AGCGTCAT | -0.0119 |
| AAGTTGCT | -0.177 |
| CATTGGTA | -0.0712 |
| ATCATAAG | -0.166 |
| AACGATAA | 0.0232 |
| TCGGGACA | -0.0308 |
| GAGAGGAC | -0.165 |
| GTAAGTTA | -0.0717 |
| AGGTGCCC | 0.063 |
| ACGCCAAG | -0.0817 |
| AGAGCCTG | -0.236 |
| ATGGAATA | -0.141 |

For quick reference, copied from above (study 2):
| Sequence | bound/input enrichment [ratio] |
| --- | --- |
| CACGGCUGAUUCGCUCAUCGGAAGAGCUGCACACAUAGCUGUUCUUGAUUCUGAGAUAUUUUCCGAGAAGUUUUUCCUGGUUGCCGCCCUCAAAUAUUUUCAGUAGGACCGAAGCAUCAU | 0.15 |
| AGGACUUCAUUCCUCCAUGUUUUCUUCCCUUAUCUUACUGUCAUUGUCCUAAAACCUUAUUUCCGAAAAUUGAUCAAGUAACAUGUUGCAUGUGGCUUACUCUGGAUAUAUCUAAGCCCU | 0.559 |
| AAUAUAUUACAGUUCAUUCCACAGAAAGCAUCCAAACCACCCAAAUGACCAAGGCAUAUACCGUAUUUGGAGGAAUCAGGGGUUUGGAAGGAGUAGGGAGGAGAAUGAAGGAAAAUGCAA | 0.248 |
| AAAGAUCCUAACAUGAAAGGUGCAAUGCUUACAAACACUGGAAAAUAUGCAAUACCAACUACCGAUGCAGAGGCCUAUGCAAUCGGGAAGAAAGAGAAACCACCCUUCUUACCAGAGGAG | 0.232 |
| AUGGAACAUUUUGAUGCAUCACUUAGUACCUAUUUCAAGGCAUUGCUAGGCCCUCGAGAUACCCGAGUAAAAGGAUGGUUUCUUCUGGACAAUUAUAUACCCACAUUUAUCUGCUCUGUC | 2.01 |
| AAGGACCAGUUCAAGAUGCCCCGGGACUGAGGCCGCCCUGCACCUUCAGCGGAUUUGGGGAUCCGGCUCUUUUAGGUAACUGGCUUUCCUGCUGGUCCGUGCGGGAAAUUCAGUCUUGAU | 0.168 |
| UGAGCGUCGGCGCCGGGGUUCGGUGGCCUCUAGUGAGAUCUGGAGGAUCCAAGGAUUCUGCCGCUACAAUGUUGUCAAGACUUUUUCGAAUGCAUGGCCUCUUUGUGGCCUCCCAUCCCU | 0.088 |
| GAAAAGAAGCAACAACUUCUUAGAGCAGCAACAGGAAAGGCCAUUUUAAAUGGAACCGACAGCAUAAACAAAGUGCUAGACCACUUCCGUCGAAAAGGAAUAAACCAGCAUGUUCAAAAU | 0.0855 |
